Published values collected from several papers.
Each line is one published result; not all experiments were run side by side. ± gives the spread as reported.
Target: Cytochrome P450 3A5 (CYP3A5, Homo sapiens, UniProt P20815)
Sequence of UniProt P20815 (whole entry, looked up): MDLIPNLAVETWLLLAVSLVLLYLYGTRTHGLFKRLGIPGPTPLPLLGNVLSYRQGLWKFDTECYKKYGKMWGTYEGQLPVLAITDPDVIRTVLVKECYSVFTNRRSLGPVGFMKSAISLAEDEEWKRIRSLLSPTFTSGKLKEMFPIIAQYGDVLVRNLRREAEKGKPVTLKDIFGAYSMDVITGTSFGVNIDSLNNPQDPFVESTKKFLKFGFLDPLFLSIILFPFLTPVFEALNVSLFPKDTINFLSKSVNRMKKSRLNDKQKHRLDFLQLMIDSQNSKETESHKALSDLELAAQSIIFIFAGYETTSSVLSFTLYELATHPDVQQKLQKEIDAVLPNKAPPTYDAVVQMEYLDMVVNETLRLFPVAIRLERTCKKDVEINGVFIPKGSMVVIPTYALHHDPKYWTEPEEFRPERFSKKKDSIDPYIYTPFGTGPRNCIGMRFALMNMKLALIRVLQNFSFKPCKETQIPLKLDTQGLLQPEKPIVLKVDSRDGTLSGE

SMILES	assay	system	conditions	measurement	value
C[C@@H](Oc1ccc(S(C)(=O)=O)cc1C(=O)N1C[C@@H]2C[C@]2(c2cc(C(F)(F)F)on2)C1)C(F)(F)F	recombinant CYP, average	phosphate buffer	pH 7.4	CYP contribution	3.64%
Cc1cc(C)c(CNC(=O)c2cc(Cl)c3c(c2C)O[C@@](C)([C@H]2CC[C@H](N(C)C)CC2)O3)c(=O)[nH]1		recombinant human CYP3A5	0 and 30 min	CLint	0.115 µL/min/pmol
C=CC(=O)Nc1cc(Nc2nccc(-c3cn(C)c4ccccc34)n2)c(OCC(F)(F)F)nc1N(C)CCNC	substrate, recombinant enzyme			fraction metabolized	0.25%
CC[C@H](C)[C@@H]([C@@H](CC(=O)N1CCC[C@H]1[C@H](OC)[C@@H](C)C(=O)N[C@@H](Cc1ccccc1)C(=O)NCCCO)OC)N(C)C(=O)[C@@H](NC(=O)[C@H](C(C)C)N(C)C)C(C)C			scaled to HLM abundance	fraction metabolised by CYP3A5	33%
C[C@H]1CN(C2COC2)CCN1c1ccc(Nc2cc(-c3ccnc(N4CCn5c(cc6c5CC(C)(C)C6)C4=O)c3CO)cn(C)c2=O)nc1	substrate	recombinant enzyme	1 µM, 60 min	remaining compound	34 ± 3.8%
N#C[C@H](C[C@@H]1CCCNC1=O)NC(=O)[C@H](CC1CC1)NC(=O)c1cc2cccc(Cl)c2[nH]1	ISEF abundance scaling		2 µM, pH 7.4	fraction metabolised	< 1%
C=CC(=O)N(C)CCOc1c(N)ncnc1-c1cc(F)cc(NC(=O)c2ccc(C3CC3)cc2F)c1C		recombinant human CYP		fraction metabolised by CYP	0.8%
C=CC(=O)Nc1cc(Nc2nccc(-c3cn(C)c4ccccc34)n2)c(OCC(F)(F)F)nc1N(C)CCN(C)C	substrate depletion	recombinant human CYP	1 µM	intrinsic clearance	0.72 µL/min/pmol

A few entries again:
SMILES	assay	system	conditions	measurement	value
C=CC(=O)Nc1cc(Nc2nccc(-c3cn(C)c4ccccc34)n2)c(OCC(F)(F)F)nc1N(C)CCN(C)C	substrate depletion	recombinant human CYP	1 µM	intrinsic clearance	0.72 µL/min/pmol
